Measurements collected from several papers.
Each line is one published result; not all experiments were run side by side. Numbers after ± are the reported error.

CC(C)(C)OC[C@@H]1C(=O)NCCN1C(=O)C[C@H](N)Cc1cc(F)c(F)cc1F
renal clearance at steady state (human; 5 mg once daily, day 10): 282 ± 80 mL/min

O=C(c1cccnc1-c1ccncc1)N1CCC(O)(Cc2ccccc2)CC1
renal clearance (healthy human, urine; oral, 400 mg once daily, day 1, arithmetic mean): 6.17 mL/min

COc1cc(C(=O)NC2CCN(C)CC2)c(F)cc1Nc1ncc(C(F)(F)F)c(Oc2cccc3c2C(=O)N(C)C3)n1
renal clearance (human patients, plasma and urine; oral, 200 mg single dose, 0-24 h, cycle 1): 21.7 mL/min

CC[C@@H]1CN(C(=O)NCC(F)(F)F)C[C@@H]1c1cnc2cnc3[nH]ccc3n12
renal clearance (human, severe renal impairment, urine and plasma; oral, 15 mg single dose, extended release, fasted, arithmetic mean): 17.7 mL/min

COC(=O)c1ccc2c(c1)NC(=O)/C2=C(\Nc1ccc(N(C)C(=O)CN2CCN(C)CC2)cc1)c1ccccc1
renal clearance (0-72 h) (healthy human controls matched to Child-Pugh A, urine and plasma; oral, 100 mg single dose, geometric mean): 17.2 mL/min

C[C@@H]1CCC[C@H](n2cnc(-c3cc(Cl)ccc3-n3cc(Cl)nn3)cc2=O)c2cc(ccn2)-c2c(cnn2C(F)F)NC1=O
renal clearance (human, moderate renal impairment, plasma and urine; oral, 60 mg single dose): 15.2 mL/min

CC(C)c1nc(N(C)S(C)(=O)=O)nc(-c2ccc(F)cc2)c1/C=C/[C@@H](O)C[C@@H](O)CC(=O)O
renal clearance ratio (healthy human; oral, dose not given, with: darolutamide; relative to: with darolutamide over alone): 0.97

O=c1[nH]c(=O)c2c[nH]nc2[nH]1
renal clearance ratio (human, male, urine and plasma; oral, 10 mg, with: allopurinol 300 mg; relative to: combination over alone): 193%

CCOc1ccc(Cc2cc([C@]34OC[C@](CO)(O3)[C@@H](O)[C@H](O)[C@H]4O)ccc2Cl)cc1
renal clearance (human, type 2 diabetes, moderate renal impairment; oral, 15 mg): 0.8 mL/min

C/C(=C\c1csc(C)n1)[C@@H]1C[C@@H]2O[C@]2(C)CCC[C@H](C)[C@H](O)[C@@H](C)C(=O)C(C)(C)[C@@H](O)CC(=O)N1
renal clearance (human patients; intravenous, 70 mg, 0 to 168 h): 24.5 mL/min

Repeated from above:
CC[C@@H]1CN(C(=O)NCC(F)(F)F)C[C@@H]1c1cnc2cnc3[nH]ccc3n12
renal clearance (human, severe renal impairment, urine and plasma; oral, 15 mg single dose, extended release, fasted, arithmetic mean): 17.7 mL/min

COC(=O)c1ccc2c(c1)NC(=O)/C2=C(\Nc1ccc(N(C)C(=O)CN2CCN(C)CC2)cc1)c1ccccc1
renal clearance (0-72 h) (healthy human controls matched to Child-Pugh A, urine and plasma; oral, 100 mg single dose, geometric mean): 17.2 mL/min
